# Assay results of several laboratories.
# Lines come from different studies, so protocols differ. Numbers after ± are the reported error.
SMILES,tested on,assay,test system,setting,scale,endpoint,result
O=C(Nc1cccc(-c2nc3ccccc3o2)c1)c1cc([N+](=O)[O-])c(F)cc1Cl,J774.A1,cytotoxicity,,,,EC50,1.9 ± 0.5 µM
Nc1cccc2c1CN(C1CCC(=O)NC1=O)C2=O (stereo not drawn),BRD4-HiBiT cells,"BRD4 degradation rescue, inhibitor",,"4 h, added: dBET6 500 nM",,EC50,7.29 µM
CCCOC(=O)C1=C(C)NC2=C(C(=O)OC(c3ccc(OC)c(OC)c3)C2)C1c1ccccc1Cl (stereo not drawn),J774.A1,cytotoxicity,,,,EC50,> 20 µM
CC(C)[C@H](NC(=O)[C@H](Cc1ccc(O)cc1)NC(=O)[C@H](Cc1ccc(O)cc1)NC(=O)[C@@H]1CCCN1C(=O)[C@H](CCC(=O)O)NC(=O)[C@H](CCC(=O)O)NC(=O)[C@H](Cc1c[nH]c2ccccc12)NC(=O)[C@@H]1CCCN1C(=O)[C@@H](NC(=O)[C@H](CCC(N)=O)NC(=O)c1ccc2c(c1)C(=O)OC21c2ccc(O)cc2Oc2cc(O)ccc21)C(C)C)C(=O)N[C@H](C(=O)N[C@@H](CCCCN)C(=O)N[C@@H](CCCCN)C(=O)N[C@@H](CO)C(=O)N[C@@H](CO)C(=O)NCC(=O)NCC(N)=O)C(C)C,,refers to: total compound,"human, plasma","intravenous infusion, 40 mg, 2 h",,plasma concentration,712 ng/mL
Cn1cc(-c2ccc(-c3cncc(Cl)c3N3CCC4(CCNC4=O)CC3)cc2)cn1,COLO 205,"gene expression, microarray, refers to: HIVEP2 mRNA",,"concentration not given, 6 h",reference: untreated cells,log2 fold change,1.64
COc1cnc2cccc(N3CCc4c(cc(Cn5ccnc5C)cc4-c4cn(C)nc4C(F)(F)F)C3=O)c2c1,RL95-2,"cell growth, inhibitor",,120 h,,EC50,13 µM
Cc1n[nH]c2ccc(-c3cc(OC[C@@H](N)Cc4ccccc4)cnc3-c3ccoc3)cc12,orf19.4518 kinase Candida albicans,MIB/MS competition binding,Candida albicans cell lysate,100 nM,"reference: DMSO, lower = stronger binding",log2 fold change,-0.0101
CCn1cc(-c2cc(Cn3ccoc3=N)cc3c2CCN([C@@H](C)c2cc(OC)ccn2)C3=O)c(C(F)(F)F)n1,RCM-1,"cell growth, inhibitor",,120 h,,EC50,4.03 µM
Cc1nn(-c2nc3c(F)cc(F)cc3s2)c(O)c1C(c1ccccc1C(F)(F)F)c1c(C)nn(-c2nc3c(F)cc(F)cc3s2)c1O,THP1-Dual,"IFN reporter gene, inhibitor, luciferase reporter",,added: HT-DNA,,EC50,18.3 µM
NC(=O)c1ccc(NCCCN2CCOCC2)c([N+](=O)[O-])c1,"Cyclin-dependent kinase 2, with cyclin A (CDK2, Homo sapiens, UniProt P24941)",,,,,Kd,> 100 µM
CNCc1ccc(-c2[nH]c3cc(F)cc4c3c2CCNC4=O)cc1,,,human patients,"oral, 600 mg twice daily, grade 5",,dizziness incidence,0%
CC(C)C[C@H](NC(=O)C[C@H](O)[C@H](CC(C)C)NC(=O)[C@H](Cc1c[nH]cn1)NC(=O)CNC(=O)[C@@H](NC(=O)[C@H](C)NC(=O)[C@H](Cc1c[nH]c2ccccc12)NC(=O)[C@H](CCC(N)=O)NC(=O)[C@@H](Cc1ccccc1)NC(=O)COCCOCCNC(=O)CCC(C(=O)O)N1CCN(CC(=O)O)CCN(CC(=O)O)CCN(CC(=O)O)CC1)C(C)C)C(N)=O (stereo partly drawn) [lutetium-177 labelled],,,"BALB/c nu/nu mice, muscle","intravenous, 750 pmol, 1 h, added: PA 300 µg",,tissue uptake,0.2 ± 0.2 %ID/g
CC(C)C[C@H](NC(=O)CNC(=O)c1cc(Cl)ccc1Cl)B(O)O,BRD4-HiBiT cells,"BRD4 degradation rescue, inhibitor",,"2 h, 50% degradation rescued, added: dBET6 500 nM",,EC50,0.238 µM
CC(C)C[C@H](NC(=O)C[C@H](O)[C@H](CC(C)C)NC(=O)[C@H](Cc1c[nH]cn1)NC(=O)CNC(=O)[C@@H](NC(=O)[C@H](C)NC(=O)[C@H](Cc1c[nH]c2ccccc12)NC(=O)[C@H](CCC(N)=O)NC(=O)[C@@H](Cc1ccccc1)NC(=O)COCCOCCNC(=O)CCC(C(=O)O)N1CCN(CC(=O)O)CCN(CC(=O)O)CC1)C(C)C)C(N)=O (stereo partly drawn) [lutetium-177 labelled],,,"female BALB/c nu/nu mice, stomach","intravenous, 50 pmol, 1 h",,tissue uptake,2.7 ± 0.4 %ID/g
CCOC(=O)C1=C(C)NC2=C(C(=O)OC(c3ccc(OC)c(OC)c3)C2)C1c1ccc(C)cc1 (stereo not drawn),J774.A1,cytotoxicity,,,,EC50,> 20 µM
CN(C)CCNS(=O)(=O)c1ccc(N/C=C2\C(=O)Nc3ccccc32)cc1,"CDK2 (Homo sapiens, UniProt P24941)","binding, thermal shift",,,,Kd,5.69 µM
c1csc(CNc2cc[nH]n2)c1,human peripheral blood lymphocytes (female),,,"1560 µg/mL, 4 h, initial, added: with S9",,cells with numerical aberrations,0%
CCn1cc(-c2cc(Cn3ccnc3)cc3c2CCN([C@H](c2cc(OC)ccn2)C2CC2)C3=O)c(C(F)(F)F)n1,NCI-H1650,"cell growth, inhibitor",,120 h,,EC50,> 30 µM
Cc1cc(OCc2nnc(SC3CCCC3)n2-c2cccnc2)ccc1-c1ccc(S(C)(=O)=O)cc1,BRD4-HiBiT cells,"BRD4 degradation rescue, inhibitor",,"8 h, 50% degradation rescued, added: dBET6 500 nM",,EC50,20.7 µM
CCOC(=O)C1=C(C)NC2=C(C(=O)CC(c3ccc(OC)c(OC)c3)C2)C1c1ccc(Cl)cc1 (stereo not drawn),J774.A1,cytotoxicity,,,,EC50,> 20 µM
O=C(Nc1cncc(-c2nc3ccccc3s2)c1)c1cc([N+](=O)[O-])c(N2CCNCC2)cc1Cl,J774.A1,cytotoxicity,,,,EC50,2.2 ± 0.7 µM
CCOC(=O)C1=C(C)NC2=C(C(=O)OC(c3ccc(OC)c(OC)c3)C2)C1c1ccc(Br)cc1 (stereo not drawn),J774.A1,cytotoxicity,,,,EC50,> 20 µM
NS(=O)(=O)OC[C@@H]1C[C@@H](n2ccc3c(N[C@H]4CCc5ccccc54)ncnc32)C[C@@H]1O,BRD4-HiBiT cells,"BRD4 degradation rescue, inhibitor",,"2 h, added: dBET6 500 nM",,EC50,0.0944 µM
CCOC(=O)C1=C(C)NC2=C(C(=O)OC(c3cccc(C)c3)C2)C1c1ccccc1Cl (stereo not drawn),J774.A1,cytotoxicity,,,,EC50,> 20 µM
NS(=O)(=O)OC[C@H]1C[C@@H](Nc2ccnc3cc(-c4cccc(SC(F)(F)F)c4)nn23)[C@H](O)[C@@H]1O,BRD4-HiBiT cells,"BRD4 degradation rescue, inhibitor",,"2 h, added: dBET6 500 nM",,EC50,0.491 µM
CCOC(=O)C1=C(C)NC2=C(C(=O)OC(c3ccc(OC)c(OC)c3)C2)C1c1ccc(-c2ccccc2)cc1 (stereo not drawn),J774.A1,cytotoxicity,,,,EC50,> 20 µM
COC[C@H](NC(=O)c1cnc(C)s1)C(=O)N[C@@H](COC)C(=O)N[C@@H](Cc1ccccc1)C(=O)[C@@]1(C)CO1,BRD4-HiBiT cells,"BRD4 degradation rescue, inhibitor",,"2 h, 50% degradation rescued, added: dBET6 500 nM",,EC50,9.31 µM

# A few entries again:
SMILES,tested on,assay,test system,setting,scale,endpoint,result
CC(C)C[C@H](NC(=O)C[C@H](O)[C@H](CC(C)C)NC(=O)[C@H](Cc1c[nH]cn1)NC(=O)CNC(=O)[C@@H](NC(=O)[C@H](C)NC(=O)[C@H](Cc1c[nH]c2ccccc12)NC(=O)[C@H](CCC(N)=O)NC(=O)[C@@H](Cc1ccccc1)NC(=O)COCCOCCNC(=O)CCC(C(=O)O)N1CCN(CC(=O)O)CCN(CC(=O)O)CCN(CC(=O)O)CC1)C(C)C)C(N)=O (stereo partly drawn) [lutetium-177 labelled],,,"BALB/c nu/nu mice, muscle","intravenous, 750 pmol, 1 h, added: PA 300 µg",,tissue uptake,0.2 ± 0.2 %ID/g
CC(C)C[C@H](NC(=O)CNC(=O)c1cc(Cl)ccc1Cl)B(O)O,BRD4-HiBiT cells,"BRD4 degradation rescue, inhibitor",,"2 h, 50% degradation rescued, added: dBET6 500 nM",,EC50,0.238 µM
